Measurements from different studies.
Lines come from different studies, so protocols differ. “And” joins repeats or separate records; there may be more than shown. ± gives the spread as reported.
Method: steady-state kinetics
B1: enzyme R237K (Acetivibrio thermocellus, UniProt A3DJ38); chain MKLTIPELSLVVLIGSSGSGKSTFAKKHFKPTEVISSDFCRGLVSDDENDQTVTGAAFDVLHYIVSKRLQLGKLTVVDATNVQESARKPLIEIAKDYHCFPVAVVFNLPEKVCQERNKNRTDRQVEEYVIRKHTQQLKKSIKGLQREGFRYVYILNSPEEVEEVVFERQPLWNNKKDEHGPFDIIGDIHGCYDELKMLLEKLGYLIEEVEGGVGSGKYRVTHPEGRKVLFLGDLVDKGPKITEVLKLVMGMVKSGIALCVPGNHDVKLLRKLNGRDVQITHGLDRTLEQLAKEPQEFIEEVKAFIDGLVSHYVLDDGKLVVAHAGMKEEFQGRGSGKVREFALYGETTGETDEYGLPVRYDWASDYRGKALVVYGHTPQAEVLKVNNTINIDTGCVFGGKLTAYRYPEREIVDVKALKTYYEPAKPFLPKEDMAERFEARTDNDILDINDVLGKKIITTRLMSSITIHEENSIAALEVMSRFAADPHWLIYLPPTMSPCETSKKEGMLEHPIEAFEYFRTRGVGKVVCEQKHMGSRAVVIVCKDSQVAEKRFGVLDGTAGICYTRTGRHFFDDMQLEAELIDRVRKVLDKSGFWGDFNTDWVCLDCELMPWSAKAQKLLEEQYSAVGISGRVVLDEAVKLLKQASLNKTVSFDVSRQTSGKNADINELLQRFTERSEMMQKYVEAYRKYCWPVNSIDDLKLAPFHILATEGKVHSDKNHIWHMDTIAKYCTQDDSLIMATNHILVDVTDAESVDKGIKWWEDLTASGGEGMVVKPYDFIVKNGRELLQPAVKCRGREYLRIIYGPEYTMDENIERLRNRAVGKKRSLALREFSLGMEALERFVRNEPLYRVHECVFGVLALESEPVDPRL
B2: enzyme E217L/L163H/N249W (Thermobifida fusca, UniProt Q47RK4); chain MTDVYILDAVRTPFGRYGGALSGIRPDDLAAHVLRALAERSPGLDPAAVDDVFFGDANGAGEDNRNVARMAALLAGWPTSVPGVTLNRLCGSGMESVIAANRAIAVGDASLAVAGGVESMSRAPWVLPKPAQGFPTGHETLYSTTLGWRMVNPAMPEQWTVSHGESTEQVAATYGISRAEQDAFALRSHERAARAWAEGVFDAEITQIPGAELERDLSIRETSAEKLAALKPAFRPDGTITAGNASPLWDGAAALLIGDAAAAERVGREPLARIVSRGVAAVDPDVFGIGPVQAAEIALRRAGIGWDDLSVVELNEAFAAQSLACLKLWPDLDPEIVNPNGGAIAIGHPLGASGARIVGTLAHELHRRGGGWGLAAICIGVGQGLAVVLHR
B3: nitrilase Y142A (Rhodococcus rhodochrous, UniProt A4LA85); chain MVEYTNTFKVAAVQAQPVWFDAAKTVDKTVSIIAEAARNGCELVAFPEVFIPGYPYHIWVDSPLAGMAKFAVRYHENSLTMDSPHVQRLLDAARDHNIAVVVGISERDGGSLYMTQLIIDADGQLVARRRKLKPTHVERSVAGEGNGSDISVYDMPFARLGALNCWEHFQTLTKYAMYSMHEQVHVASWPGMSLYQPEVPAFGVDAQLTATRMYALEGQTFVVCTTQVVTPEAHEFFCENEEQRKLIGRGGGFARIIGPDGRDLATPLAEDEEGILYADIDLSAITLAKQAADPVGHYSRPDVLSLNFNQRRTTPVNTPLSTIHATHTFVPQFGALDGVRELNGADEQRALPSTHSDETDRATASI
B4: protein (Rhodopseudomonas palustris, UniProt Q6N3R9); chain MSNVRVLATDLAFPEGPVVMPDGSVVLVEIRAQQLTRVWPDGRKEVVAKVPGGPNGAALGPDGKMYICNNGGFGWFPSRGTMMPGAPAPHEYIGGSIQRVDLQSGEVETLFDKCGEHPLKGPNDLVFDKHGGLWFTDLGKRRARDMDVGAAYYIKPGMTEITEQVFGTLPLNGIGLSPDEATMYAAETPTGRLWAFDLSGPGEVKPRDVIYRGEKGKPICGLGGYQMFDSLAVEASGNVCVATLVSGCISVIAPDGTLVEQVPTGDRVTTNIAFGGPDLKTAYITLSGKGELIAMDWSRPGLPLNFLNK
B5: protein A329L (Streptomyces toyocaensis, UniProt Q8KLK7); chain MTTVLPPLEDTDGLWAALTEAAASVEKLLATLPEHGARSSAERAEIAAAHDAARALRVRFLDTHADAVYDRLTDHRRVHLRLAELVEAAATAFPGLVPTQQQLAVERSLPQAAKEGHEIDQGIFLRAVLRSPLAGPHLLDAMLRPTPRALELLPEFVRTGEVEMEAVHLERRDGVARLTMCRDDRLNAEDGQQVDDMETAVDLALLDPGVRVGLLRGGVMSHPRYRGKRVFSAGINLKYLSQGGISLVDFLMRRELGYIHKLVRGVLTNDDRPGWWHSPRIEKPWVAAVDGFAIGGGAQLLLVFDRVLASSDAYFSLPAAKEGIIPGALNLRLGRFAGPRVSRQVILEGRRIWAKEPEARLLVDEVVEPDELDAAIERSLTRLDGDAVLANRRMLNLADESPDGFRAYMAEFALMQALRLYGHDVIDKVGRFGGRPPA
B6: waaG (Escherichia coli, UniProt P25740); chain MIVAFCLYKYFPFGGLQRDFMRIASTVAARGHHVRVYTQSWEGDCPKAFELIQVPVKSHTNHGRNAEYYAWVQNHLKEHPADRVVGFNKMPGLDVYFAADVCYAEKVAQEKGFLYRLTSRYRHYAAFERATFEQGKSTKLMMLTDKQIADFQKHYQTEPERFQILPPGIYPDRKYSEQIPNSREIYRQKNGIKEQQNLLLQVGSDFGRKGVDRSIEALASLPESLRHNTLLFVVGQDKPRKFEALAEKLGVRSNVHFFSGRNDVSELMAAADLLLHPAYQEAAGIVLLEAITAGLPVLTTAVCGYAHYIADANCGTVIAEPFSQEQLNEVLRKALTQSPLRMAWAENARHYADTQDLYSLPEKAADIITGGLDG
B7: enzyme N488A (Limosilactobacillus reuteri, UniProt Q8GP32); chain SADTNIENNDSSTVQVTTGDNDIAVKSVTLGSGQVSAASDTTIRTSANANSASSAANTQNSNSQVASSAAITSSTSSAASSNNTDSKAAQENTNTAKNDDTQKAAPANESSEAKNEPAVNVNDSSAAKNDDQQSSKKNTTAKLNKDAENVVKKAGIDPNSLTDDQIKALNKMNFSKAAKSGTQMTYNDFQKIADTLIKQDGRYTVPFFKASEIKNMPAATTKDAQTNTIEPLDVWDSWPVQDVRTGQVANWNGYQLVIAMMGIPNQNDNHIYLLYNKYGDNELSHWKNVGPIFGYNSTAVSQEWSGSAVLNSDNSIQLFYTRVDTSDNNTNHQKIASATLYLTDNNGNVSLAQVANDHIVFEGDGYYYQTYDQWKATNKGADNIAMRDAHVIEDDNGDRYLVFEASTGLENYQGEDQIYNWLNYGGDDAFNIKSLFRILSNDDIKSRATWAAAAIGILKLNKDEKNPKVAELYSPLISAPMVSDEIERPNVVKLGNKYYLFAATRLNRGSNDDAWMNANYAVGDNVAMVGYVADSLTGSYKPLNDSGVVLTASVPANWRTATYSYYAVPVAGKDDQVLVTSYMTNRNGVAGKGMDSTWAPSFLLQINPDNTTTVLAKMTNQGDWIWDDSSENLDMIGDLDSAALPGERDKPVDWDLIGYGLKP
B8: enzyme (Mus musculus, UniProt Q9JLT4); chain GGQQSFDLLVIGGGSGGLACAKEAAQLGKKVAVADYVEPSPRGTKWGLGGTCVNVGCIPKKLMHQAALLGGMIRDAHHYGWEVAQPVQHNWKTMAEAVQNHVKSLNWGHRVQLQDRKVKYFNIKASFVDEHTVRGVDKGGKATLLSAEHIVIATGGRPRYPTQVKGALEYGITSDDIFWLKESPGKTLVVGASYVALECAGFLTGIGLDTTVMMRSIPLRGFDQQMSSLVTEHMESHGTQFLKGCVPSHIKKLPTNQLQVTWEDHASGKEDTGTFDTVLWAIGRVPETRTLNLEKAGISTNPKNQKIIVDAQEATSVPHIYAIGDVAEGRPELTPTAIKAGKLLAQRLFGKSSTLMDYSNVPTTVFTPLEYGCVGLSEEEAVALHGQEHVEVYHAYYKPLEFTVADRDASQCYIKMVCMREPPQLVLGLHFLGPNAGEVTQGFALGIKCGASYAQVMQTVGIHPTCSEEVVKLHISKRSGLEPTVTGCUG
B9: nitrilase Y142F (Rhodococcus rhodochrous, UniProt A4LA85); chain MVEYTNTFKVAAVQAQPVWFDAAKTVDKTVSIIAEAARNGCELVAFPEVFIPGYPYHIWVDSPLAGMAKFAVRYHENSLTMDSPHVQRLLDAARDHNIAVVVGISERDGGSLYMTQLIIDADGQLVARRRKLKPTHVERSVFGEGNGSDISVYDMPFARLGALNCWEHFQTLTKYAMYSMHEQVHVASWPGMSLYQPEVPAFGVDAQLTATRMYALEGQTFVVCTTQVVTPEAHEFFCENEEQRKLIGRGGGFARIIGPDGRDLATPLAEDEEGILYADIDLSAITLAKQAADPVGHYSRPDVLSLNFNQRRTTPVNTPLSTIHATHTFVPQFGALDGVRELNGADEQRALPSTHSDETDRATASI
B10: DAO1 (Trigonopsis variabilis, UniProt Q99042); chain MAKIVVIGAGVAGLTTALQLLRKGHEVTIVSEFTPGDLSIGYTSPWAGANWLTFYDGGKLADYDAVSYPILRELARSSPEAGIRLISQRSHVLKRDLPKLEVAMSAICQRNPWFKNTVDSFEIIEDRSRIVHDDVAYLVEFRSVCIHTGVYLNWLMSQCLSLGATVVKRRVNHIKDANLLHSSGSRPDVIVNCSGLFARFLGGVEDKKMYPIRGQVVLVRNSLPFMASFSSTPEKENEDEALYIMTRFDGTSIIGGCFQPNNWSSEPDPSLTHRILSRALDRFPELTKDGPLDIVRECVGHRPGREGGPRVELEKIPGVGFVVHNYGAAGAGYQSSYGMADEAVSYVERALTRPNL

With `B1 (enzyme R237K)` the kcat was 26.2 ± 1.57 s⁻¹ (Nc1ncnc2c1ncn2[C@@H]1O[C@H](CO)[C@H]2OP(=O)(O)O[C@H]21; pH 7.5, 45 °C).
`B2 (enzyme E217L/L163H/N249W)` has a kcat of 0.005 ± 0.0007 s⁻¹ (CC(C)(COP(=O)(O)OP(=O)(O)OC[C@H]1O[C@@H](n2cnc3c(N)ncnc32)[C@H](O)[C@@H]1OP(=O)(O)O)[C@@H](O)C(=O)NCCC(=O)NCCSC(=O)CCCC(=O)O; pH 7.4, 37 °C).
With `B3 (nitrilase Y142A)` the kcat was 0.0003083 ± 1.67e-06 s⁻¹ (N#Cc1ccccn1; pH 7.5, 25 °C).
`B4 (protein)` has a kcat of > 38.6 s⁻¹ (CC(=O)Oc1ccccc1; pH 8.3, NaCl 150 mM, no saturation, together with: CaCl2 1 mM).
The kcat of `ω-transaminase A60V/E38Q/I154V/M128F/P9A/S87N/W58G (Pseudomonas jessenii)` is reported as 1.2 ± 0.02 s⁻¹ (O=C1CCc2ccccc21; pH 8, 56 °C, apparent, together with: isopropylamine 1 M, PLP 0.05 mM).
For `B5 (protein A329L)`, the kcat was 0.017 ± 0.001 s⁻¹ (CC(C)(COP(=O)(O)OP(=O)(O)OC[C@H]1O[C@@H](n2cnc3c(N)ncnc32)[C@H](O)[C@@H]1OP(=O)(O)O)[C@@H](O)C(=O)NCCC(=O)NCCSC(=O)Cc1cc(O)cc(O)c1; pH 7.5, 24 °C, together with: O2).
For `B6 (waaG)`, the kcat was 0.5 s⁻¹ (O=c1ccn([C@@H]2O[C@H](CO[P@@](=O)(O)O[P@@](=O)(O)O[C@H]3O[C@H](CO)[C@@H](O)[C@H](O)[C@H]3O)[C@@H](O)[C@H]2O)c(=O)[nH]1; pH 7.5, 25 °C, apparent).
The kcat of `B7 (enzyme N488A)` is reported as 370 s⁻¹ and 410 s⁻¹ (OC[C@H]1O[C@@](CO)(O[C@H]2O[C@H](CO)[C@@H](O)[C@H](O)[C@H]2O)[C@@H](O)[C@@H]1O; pH 5.5, 50 °C, apparent).
`B8 (enzyme)` has a kcat of 2.68 ± 0.283 s⁻¹ (N#C[Se]O).
For `B9 (nitrilase Y142F)`, the kcat was 0.0001767 ± 1.67e-06 s⁻¹ (N#CCCCCC#N; pH 7.5, 25 °C).
With `PA3944 (Pseudomonas aeruginosa, UniProt Q9HX72)` the kcat was 0.391 s⁻¹ (NCC[C@H](N)C(=O)O; pH 8, 37 °C).
`tgt C145V/T146V/V217G (Escherichia coli)` has a kcat of 0.00122 s⁻¹ (Nc1nc2nc[nH]c2c(=O)[nH]1; pH 7.3, 37 °C).
For `rfbC (Campylobacter jejuni, UniProt Q0P8I4)`, the kcat was 3.5 ± 0.2 s⁻¹ (Nc1nc2c(ncn2[C@@H]2O[C@H](COP(=O)(O)OP(=O)(O)O[C@H]3O[C@H]([C@H](O)CO)C(=O)[C@H](O)[C@@H]3O)[C@@H](O)[C@H]2O)c(=O)[nH]1; pH 7.5, 30 °C).
`azu N36H/Q28H/Q34H (Pseudomonas aeruginosa)` gave a kcat of 0.00983 s⁻¹ (O=NO; pH 6.35).
For `B10 (DAO1)`, the kcat was 0.033 ± 0.001 s⁻¹ (O=C1C(Cl)=CC(=Nc2ccc(O)cc2)C=C1Cl; pH 8, 22 °C, varied electron acceptor, apparent, together with: D-methionine 200 mM).
